Published values gathered from unrelated publications.
Lines come from different studies, so protocols differ. Several values in a cell are separate wells, animals, samples, runs or records. ± marks the error that the study gave.

COc1nnc2ccc(N3CCC(c4ccc(OCCN5CCN(C)C(=O)[C@H]5C)cc4)CC3)nn12 — time above HEXIM1 threshold (human patients; 5 mg twice daily, 1.5-fold above baseline, monotherapy and combination cohorts): 2.93 h
COc1ccc(NC(=O)c2ccc(-n3cc(CNc4nc(OC)nc(OC)n4)nn3)cc2)cc1 — IC50 (cell viability, MTT; normal colonocytes, rat; 72 h): 116 ± 1.53 nM
NC(=O)c1cnc2[nH]ccc2c1N[C@@H]1[C@@H]2CC3C[C@H]1C[C@@](O)(C3)C2 — percent change (CD8+ effector memory T cells, flow cytometry; Japanese humans, peripheral blood; 200 mg single dose; baseline: baseline): -0.43%
CN(C)C(=O)c1cc2cnc(Nc3ccc(N4CCNCC4)cn3)nc2n1C1CCCC1 — GSEA enrichment score (RNA-seq GSEA, measured: HALLMARK_XENOBIOTIC_METABOLISM; MB002 tumour; concentration not given, in vivo; baseline: vehicle, direction not given): 0.319
C[C@@H](NC(=O)N1C(=O)[C@H](Cc2ccnc(N)c2)[C@H]1C(=O)O)C1CCCCC1 — aPTT Emax (human; iv infusion, 0.6 mg/kg/h, 24 h): 48.5 s
O=C(O)CNC(=O)Cc1ccccc1 — sarcomere length (ventricular cardiomyocytes, C57BL/6 mouse; dose not given, 0.668 s): 1.72 µm
Cc1cc(NS(=O)(=O)c2ccc(N=NN(O)c3ccccc3)cc2)no1 — paw edema volume (carrageenan-induced paw edema; Wistar rat; oral, 100 mg/kg, 2 h after carrageenan, added: carrageenan 1% subplantar; higher = more edema): 5.1 ± 0.42 a.u.
CC1(C)CCC2(CC1)N[C@@H](C(=O)N[C@@H]1CC[C@@H](C(N)=O)OC1)[C@H](c1ccnc(Cl)c1F)[C@]21C(=O)Nc2cc(Cl)ccc21 — stable disease (RECIST; patients with solid tumours; dose not given; baseline: patients): 43.8%
CO[C@H]1CC[C@H](N2C(=O)CNc3ncc(-c4ccc(C(C)(C)O)nc4)nc32)CC1 — p4EBP1 change from baseline (flow cytometry; stimulated T cells, human, blood; 30 mg single dose, 1.5 h, median; baseline: baseline): -37.1%
COc1ccccc1[C@H](Cn1c(=O)n(C(C)(C)C(=O)O)c(=O)c2c(C)c(-c3ncco3)sc21)OC1CCOCC1 — serum total cholesterol (human; 200 mg, post-treatment): 179 ± 31.7 mg/dL
OC(CCN1CCCCC1)(c1ccccc1)C1CC2C=CC1C2 (stereo not shown) — gamma power, EEG, Pz-O1 (resting-state EEG; healthy elderly humans; oral, 2 mg, eyes closed, LS mean): 0.9 µV²
NCC(=O)Nc1cncc(-c2nn3c(=O)cc(N4CCNCC4)nc3s2)c1 — inhibition of platelet aggregation (ADP-induced platelet aggregation, light transmission aggregometry; human stable CAD patients on aspirin, platelets ex vivo; 0.075 mg/kg, 360 min post dose, added: 20 µM ADP; baseline: placebo difference): 7.47%
CN[C@@H]1COc2c(S(=O)(=O)NC(=O)Nc3c4c(cc5c3CCC5)CCC4)cnn2C1 — inhibition (measured: IL-1β; human participants, whole blood ex vivo; 450 mg single dose, 4 h, added: LPS/ATP; baseline: baseline): 99%
COc1cc(F)c([C@@H]2CNC(=O)[C@H]2NC(=O)Nc2ccccc2)c(F)c1 — left ventricular systolic pressure (terminal haemodynamics; rat, permanent coronary occlusion MI; 1 mg/kg, 1008 h, 6 weeks post-MI): 119 ± 9 mmHg
C[C@@H](O)CCOC(=O)C[C@@H](C)O — metabolite level (measured: C10:2 acylcarnitine; human, plasma; 60 min, log2-transformed values): -5.27 ± 0.65 µmol/L
COc1cc2cc(-c3ccc(CC(=O)Nc4cc(C(C)(C)C(F)(F)F)no4)cn3)cnc2cc1OC — stable disease as best response (RECIST v1.1; RET-altered advanced solid tumour patients; oral, 40 mg once daily, phase I): 67%
CNCc1cc(-c2ccccc2F)n(S(=O)(=O)c2cccnc2)c1 — gastric lesion area (rat, indomethacin-induced ulcer; oral, 2 mg/kg, 6 h, added: indomethacin 40 mg/kg): 21.5 ± 5.9 mm²
CCCCC1(CCCC)CN(c2ccccc2)c2cc(SC)c(OCC(=O)N[C@@H](C(=O)NCC(=O)O)c3ccccc3)cc2S(=O)(=O)C1 — plasma C4 (measured: 7α-hydroxy-4-cholesten-3-one; human, plasma; 10 mg once daily, day 9): 61.6 ng/mL
c1ccc(-c2n[nH]cc2-c2ccnc3ccccc23)nc1 — log2 fold change (kinase binding, competitor, MIB/MS competition, measured: HRR25; Candida albicans cell lysate; 10 µM; baseline: DMSO): -1.17
Cc1cn(-c2ccc3n(c2=O)CCN([C@@H](C)[C@@H]2CC[C@H](c4cc(F)c(Cl)cc4C(F)(F)F)O2)C3=O)cn1 — CSF Aβ37 increase (human, CSF; 360 mg once daily, 14 days, multiple dose, single LP; baseline: placebo): 372%
CCCN(O)N=Nc1ccc(S(=O)(=O)Nc2nccs2)cc1 — paw edema volume (carrageenan-induced paw edema; Wistar rat; oral, 100 mg/kg, 2 h after carrageenan, added: carrageenan 1% subplantar; higher = more edema): 5.93 ± 0.81 a.u.
CC(C)C[C@H](NC(=O)[C@@H](Cc1c[nH]c2ccccc12)NC(=O)[C@H](Cc1ccc(O)cc1)NC(=O)[C@H](CO)NC(=O)[C@H](Cc1c[nH]c2ccccc12)NC(=O)[C@H](Cc1c[nH]cn1)NC(=O)[C@@H]1CCC(=O)N1)C(=O)N[C@@H](CCCNC(=N)N)C(=O)N1CCC[C@H]1C(=O)NCC(N)=O — stable pubic hair stage (Tanner staging; Chinese boys, central precocious puberty; intramuscular, 22.5 mg day 1, month 6, month 12; baseline: baseline): 75%
Cc1noc(NS(=O)(=O)c2ccc(N=NN(C)O)cc2)c1C — paw edema volume (carrageenan-induced paw edema; Wistar rat; oral, 100 mg/kg, 4 h after carrageenan, added: carrageenan 1% subplantar; higher = more edema): 4.42 ± 0.83 a.u.
N#Cc1ccc2c(-c3ccncc3)c(-c3ccc(F)cc3)nn2c1 — log2 fold change (kinase binding, competitor, MIB/MS competition, measured: HRR25; Candida albicans cell lysate; 1 µM; baseline: DMSO): -1.2
N#Cc1ccc2c(c1)[C@H]1CCCN(C(=O)c3ccc4[nH]cnc4c3)[C@H]1C2 — change from baseline (measured: Triglycerides; human, Phase II trial; oral, 240 mg once daily, day 28, adjusted mean, SE): -37.5 mg/dL
COc1ccc(C2=N[C@@H](c3ccc(Cl)cc3)[C@@H](c3ccc(Cl)cc3)N2C(=O)N2CCNC(=O)C2)c(OC(C)C)c1 — centrally nucleated fibres (histology; Dmd C3333Y mice, gastrocnemius; dose not given): 85% and 79% and 90% and 87% and 92%
Cc1cccc(N(O)N=Nc2ccc(S(=O)(=O)Nc3cc(C)on3)cc2)c1 — paw edema volume (carrageenan-induced paw edema; Wistar rat; oral, 100 mg/kg, 0 h (baseline), added: carrageenan 1% subplantar; higher = more edema): 3.4 ± 0.45 a.u.
CCCNc1nc(Nc2ccc(C#N)cc2)ncc1C#CCCCNC(=O)[C@H](C)N(C)C(=O)/C=C/CN(C)C — marrow blasts (human; 50 mg twice daily, end of cycle 2): 3%
Cc1n[nH]c2ccc(-c3cc(OC[C@@H](N)Cc4ccccc4)cnc3-c3ccoc3)cc12 — log2 fold change (kinase binding, competitor, MIB/MS competition, measured: ATG1; Candida albicans cell lysate; 10 µM; baseline: DMSO): -0.524
Cn1cc(Nc2nccc(-c3ccc4c(c3)CN(C3COC3)CC[C@H]4NC(=O)c3cn(C(C)(C)C)nn3)n2)cn1 — pathway activation z-score (measured: RANK signaling in osteoclasts; splenic B cells, mice; 30 mg/kg, IgD-activated in vivo; baseline: vehicle, direction not given): 3.9
N#Cc1ccn2c(-c3ccncc3)c(-c3ccc(F)cc3)nc2c1 — log2 fold change (kinase binding, competitor, MIB/MS competition, measured: GIN4; Candida albicans cell lysate; 100 nM; baseline: DMSO): -0.128
C[C@H]1C[C@H]2CSC(N)=N[C@@]2(c2nc(NC(=O)c3ccc(OC(F)F)cn3)cs2)CO1 — percent change from baseline (measured: Aβx-40; healthy adults, plasma; 3 mg single dose, 24 h post-dose; baseline: placebo): -25.1%
CC(=O)Oc1cc2c(s1)CCN(C(C(=O)C1CC1)c1ccccc1F)C2 (stereo not shown) — patients with IPA above 80% (light transmittance aggregometry; human patients, platelet-rich plasma; dose not given, 30 min, added: ADP 20 µM; baseline: patients): 0%
CCCCCCCCCCCCCCCC(=O)NCCOC(=O)C[C@@H](CN)CC(C)C — time to peak efficacy (mechanical withdrawal threshold; mouse carrageenan inflammatory pain; oral, dose not given): 180 min
CC#CC(=O)N[C@H]1CCCN(c2c(F)cc(C(N)=O)c3[nH]c(C)c(C)c23)C1 — serum immunoglobulin (measured: IgA; human; 0.3 mg once daily, day 21; baseline: baseline): -1.3 % change
CC(C)[C@H](C(=O)Nc1ccc(C(=O)NO)cc1)c1ccccc1 — tumour volume (volumetric MRI; human, right internal auditory canal; dose not given, 224 days): 20.2 cm³
COc1ncnn2ccc(-c3cnc4nc(C)n(Cc5nnc([C@@H](C)F)o5)c4c3)c12 — complete remission rate (relapsed or refractory AML patients; dose not given): 25%
C=CCn1c(=O)c2cnc(Nc3ccc(N4CCN(C)CC4)cc3)nc2n1-c1ccc2c(n1)[C@@](O)(CC)CC2 — tumour volume difference (OVCAR-3 xenograft, NOD/SCID mice; oral, 80 mg/kg, day 32, once daily intermittent): 153 ± 22.7 mm3
COc1nc(NCc2cn(-c3ccc(C(=O)Nc4ccc(Br)cc4)cc3)nn2)nc(OC)n1 — IC50 (cell viability, MTT; normal colonocytes, rat; 72 h): 106 ± 5.17 nM
Cn1cc(-c2ccc(-c3cncc(Cl)c3N3CCC4(CCNC4=O)CC3)cc2)cn1 — fold change in expression (COLO 205; microarray, measured: FosB; concentration not given, 2 h; baseline: untreated cells): 1.4
C[C@H](Oc1ccc(Br)cc1-c1ccon1)C(=O)O — difference from placebo (MVRC latency; human, tibialis anterior muscle; 100 mg, SAD): -0.207 ms
Cc1cc(F)cc2c(CCC(=O)N[C@@H]3C(=O)NC[C@H]3O)c(-c3ccc(F)cc3)[nH]c12 — UACR (mice, APOL1 G2, single copy; oral, 30 mg/kg twice daily, day 6, added: IFNγ plasmid injection): 30400 µg/mg and 2140 µg/mg and 8740 µg/mg and 2810 µg/mg and 1180 µg/mg and 1440 µg/mg
Cc1cccc(N(O)N=Nc2ccc(S(=O)(=O)Nc3nccs3)cc2)c1 — paw edema volume (carrageenan-induced paw edema; Wistar rat; oral, 100 mg/kg, 3 h after carrageenan, added: carrageenan 1% subplantar; higher = more edema): 5.23 ± 0.36 a.u.
CC(C)NCC(O)c1ccc(O)c(O)c1 (stereo not shown) — sarcomere length (ventricular cardiomyocytes, C57BL/6 mouse; dose not given, 0.128 s): 1.66 µm
COc1cc(/C=C/C(=O)N2CCC=CC2=O)cc(OC)c1OC — mRNA level (qRT-PCR, measured: MT2A; nude mouse MDA-MB-468 xenograft, tumour; 15 mg/kg, 21 days, normalised to beta-actin, unit not given; baseline: vehicle): 0.521
Cc1cccc(N(O)N=Nc2ccc(S(=O)(=O)Nc3onc(C)c3C)cc2)c1 — paw edema volume (carrageenan-induced paw edema; Wistar rat; oral, 100 mg/kg, 0 h (baseline), added: carrageenan 1% subplantar; higher = more edema): 3.31 ± 0.23 a.u.
O=C(OC(C(F)(F)F)C(F)(F)F)N1CCN(Cc2cccc(Oc3ccccc3)c2)CC1 — tracer distribution volume (PET; rhesus monkey, frontal cortex; intravenous, 0.3 mg/kg, pretreatment blocking, added: [18F]T-401): 1.56 mL/cm3
CCN(O)N=Nc1ccc(S(=O)(=O)Nc2cc(C)on2)cc1 — paw edema volume (carrageenan-induced paw edema; Wistar rat; oral, 100 mg/kg, 4 h after carrageenan, added: carrageenan 1% subplantar; higher = more edema): 4 ± 0.88 a.u.
OC[C@H]1O[C@@H](c2ccc(Cl)c(Cc3ccc(O[C@H]4CCOC4)cc3)c2)[C@H](O)[C@@H](O)[C@@H]1O — AUC50 (fasting plasma glucose, exposure-response PK/PD model; type 2 diabetes patients; dose not given, final model estimate): 703 nM·h
COc1ccc(-c2cncc(N[C@@H](C)c3cccc(NC(=O)c4cncc(C)c4)c3)n2)cc1OC — delta delta Ct (measured: rno-miR-192-5p; rat SU5416/hypoxia model, lung; dose not given, unit not given; baseline: SU5416/hypoxia vehicle): -0.773
Cc1ccc(C(=O)OCc2ccc([C@@H](CN)C(=O)Nc3ccc4cnccc4c3)cc2)c(C)c1 — IOP (tonometry; NZW rabbit, magnetic bead-induced ocular hypertension; ocular, 0.02%, 48 h): 36.9 mmHg
CCCN(O)N=Nc1ccc(S(=O)(=O)Nc2cc(C)on2)cc1 — paw edema volume (carrageenan-induced paw edema; Wistar rat; oral, 100 mg/kg, 2 h after carrageenan, added: carrageenan 1% subplantar; higher = more edema): 5.35 ± 0.51 a.u.
